{"data": "Assay results pooled from the literature", "note": "Parts stem from different laboratories: compare values within a part only.", "sequence of UniProt P49761 (whole entry, looked up)": "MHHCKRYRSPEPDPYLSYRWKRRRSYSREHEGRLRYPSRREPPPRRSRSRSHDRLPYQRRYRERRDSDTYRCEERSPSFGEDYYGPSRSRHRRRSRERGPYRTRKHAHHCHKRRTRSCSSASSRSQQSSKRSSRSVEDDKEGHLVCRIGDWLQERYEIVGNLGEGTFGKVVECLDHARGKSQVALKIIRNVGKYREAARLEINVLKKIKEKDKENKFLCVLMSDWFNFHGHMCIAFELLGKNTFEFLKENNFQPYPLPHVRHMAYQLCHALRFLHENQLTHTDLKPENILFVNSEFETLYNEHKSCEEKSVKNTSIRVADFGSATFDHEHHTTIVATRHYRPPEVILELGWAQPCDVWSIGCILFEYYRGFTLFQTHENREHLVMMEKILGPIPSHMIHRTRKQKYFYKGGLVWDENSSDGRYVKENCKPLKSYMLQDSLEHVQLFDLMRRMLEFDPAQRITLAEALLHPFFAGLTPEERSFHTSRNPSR", "sequence of UniProt O14936 (whole entry, looked up)": "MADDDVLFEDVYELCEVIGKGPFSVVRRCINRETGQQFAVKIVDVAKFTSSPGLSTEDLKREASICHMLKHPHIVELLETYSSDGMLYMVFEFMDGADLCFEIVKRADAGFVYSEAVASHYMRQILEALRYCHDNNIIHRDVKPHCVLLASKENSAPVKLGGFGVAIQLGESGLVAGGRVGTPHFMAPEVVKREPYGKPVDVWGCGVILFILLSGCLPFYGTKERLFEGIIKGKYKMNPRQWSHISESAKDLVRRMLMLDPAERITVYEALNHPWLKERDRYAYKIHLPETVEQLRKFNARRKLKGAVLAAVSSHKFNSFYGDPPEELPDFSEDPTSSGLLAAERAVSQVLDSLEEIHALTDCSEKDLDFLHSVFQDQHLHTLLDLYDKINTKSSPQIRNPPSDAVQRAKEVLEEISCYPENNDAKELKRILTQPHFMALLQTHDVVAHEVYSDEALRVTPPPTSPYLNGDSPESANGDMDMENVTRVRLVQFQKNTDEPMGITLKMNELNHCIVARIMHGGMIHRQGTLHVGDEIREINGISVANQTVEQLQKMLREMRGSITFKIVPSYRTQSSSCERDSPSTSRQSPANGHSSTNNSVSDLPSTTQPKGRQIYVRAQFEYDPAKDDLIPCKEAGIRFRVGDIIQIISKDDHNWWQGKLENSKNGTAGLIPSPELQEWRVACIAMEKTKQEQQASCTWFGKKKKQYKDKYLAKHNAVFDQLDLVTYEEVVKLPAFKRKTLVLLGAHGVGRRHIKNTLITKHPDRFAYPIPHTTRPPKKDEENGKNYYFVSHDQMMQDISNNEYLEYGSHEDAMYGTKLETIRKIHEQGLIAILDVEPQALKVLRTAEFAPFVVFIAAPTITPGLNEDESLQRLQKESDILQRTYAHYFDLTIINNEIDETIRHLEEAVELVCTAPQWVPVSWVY", "sequence of UniProt P54753 (whole entry, looked up)": "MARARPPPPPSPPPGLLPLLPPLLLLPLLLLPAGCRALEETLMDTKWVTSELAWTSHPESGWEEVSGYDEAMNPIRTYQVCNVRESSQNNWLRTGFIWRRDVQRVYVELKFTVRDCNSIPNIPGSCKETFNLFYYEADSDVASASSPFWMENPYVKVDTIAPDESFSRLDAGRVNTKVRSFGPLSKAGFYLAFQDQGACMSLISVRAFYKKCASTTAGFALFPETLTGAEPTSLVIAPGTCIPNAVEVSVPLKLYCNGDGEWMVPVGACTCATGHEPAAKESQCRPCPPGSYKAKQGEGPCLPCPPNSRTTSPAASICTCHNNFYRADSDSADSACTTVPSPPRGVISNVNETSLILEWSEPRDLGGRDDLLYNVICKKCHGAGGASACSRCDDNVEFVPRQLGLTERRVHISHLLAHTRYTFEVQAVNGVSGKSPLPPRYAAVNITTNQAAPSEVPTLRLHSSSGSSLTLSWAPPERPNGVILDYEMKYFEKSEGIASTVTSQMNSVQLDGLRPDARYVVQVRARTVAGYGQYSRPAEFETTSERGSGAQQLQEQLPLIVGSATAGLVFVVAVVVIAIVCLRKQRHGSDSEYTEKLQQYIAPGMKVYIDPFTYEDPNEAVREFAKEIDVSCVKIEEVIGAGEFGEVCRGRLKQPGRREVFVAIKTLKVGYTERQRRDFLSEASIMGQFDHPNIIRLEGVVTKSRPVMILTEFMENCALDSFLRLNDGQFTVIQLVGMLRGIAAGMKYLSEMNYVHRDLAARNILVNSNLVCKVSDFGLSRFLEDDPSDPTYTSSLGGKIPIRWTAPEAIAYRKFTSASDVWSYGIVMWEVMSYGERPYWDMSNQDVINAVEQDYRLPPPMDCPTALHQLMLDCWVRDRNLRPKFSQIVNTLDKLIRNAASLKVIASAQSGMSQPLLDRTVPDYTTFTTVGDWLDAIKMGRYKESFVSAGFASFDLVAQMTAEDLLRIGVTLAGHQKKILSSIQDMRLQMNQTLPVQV", "sequence of UniProt Q96GD4 (whole entry, looked up)": "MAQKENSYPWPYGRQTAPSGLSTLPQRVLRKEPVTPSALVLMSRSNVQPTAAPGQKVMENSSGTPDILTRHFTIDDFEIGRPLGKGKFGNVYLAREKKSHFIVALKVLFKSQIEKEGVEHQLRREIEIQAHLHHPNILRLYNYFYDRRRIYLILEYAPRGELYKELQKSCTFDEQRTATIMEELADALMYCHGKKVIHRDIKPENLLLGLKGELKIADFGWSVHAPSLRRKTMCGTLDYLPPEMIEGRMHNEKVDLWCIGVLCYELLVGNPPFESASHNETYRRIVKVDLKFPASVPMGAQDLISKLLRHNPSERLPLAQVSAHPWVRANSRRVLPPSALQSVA", "sequence of UniProt Q96KB5 (whole entry, looked up)": "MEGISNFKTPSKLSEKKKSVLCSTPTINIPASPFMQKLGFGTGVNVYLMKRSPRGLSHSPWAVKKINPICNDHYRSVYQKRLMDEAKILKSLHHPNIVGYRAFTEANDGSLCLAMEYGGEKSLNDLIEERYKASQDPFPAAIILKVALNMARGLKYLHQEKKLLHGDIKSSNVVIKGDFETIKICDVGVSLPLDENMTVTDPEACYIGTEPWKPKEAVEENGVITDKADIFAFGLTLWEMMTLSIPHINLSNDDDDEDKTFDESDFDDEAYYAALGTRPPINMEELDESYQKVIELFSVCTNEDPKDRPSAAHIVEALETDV", "sequence of UniProt P78362 (whole entry, looked up)": "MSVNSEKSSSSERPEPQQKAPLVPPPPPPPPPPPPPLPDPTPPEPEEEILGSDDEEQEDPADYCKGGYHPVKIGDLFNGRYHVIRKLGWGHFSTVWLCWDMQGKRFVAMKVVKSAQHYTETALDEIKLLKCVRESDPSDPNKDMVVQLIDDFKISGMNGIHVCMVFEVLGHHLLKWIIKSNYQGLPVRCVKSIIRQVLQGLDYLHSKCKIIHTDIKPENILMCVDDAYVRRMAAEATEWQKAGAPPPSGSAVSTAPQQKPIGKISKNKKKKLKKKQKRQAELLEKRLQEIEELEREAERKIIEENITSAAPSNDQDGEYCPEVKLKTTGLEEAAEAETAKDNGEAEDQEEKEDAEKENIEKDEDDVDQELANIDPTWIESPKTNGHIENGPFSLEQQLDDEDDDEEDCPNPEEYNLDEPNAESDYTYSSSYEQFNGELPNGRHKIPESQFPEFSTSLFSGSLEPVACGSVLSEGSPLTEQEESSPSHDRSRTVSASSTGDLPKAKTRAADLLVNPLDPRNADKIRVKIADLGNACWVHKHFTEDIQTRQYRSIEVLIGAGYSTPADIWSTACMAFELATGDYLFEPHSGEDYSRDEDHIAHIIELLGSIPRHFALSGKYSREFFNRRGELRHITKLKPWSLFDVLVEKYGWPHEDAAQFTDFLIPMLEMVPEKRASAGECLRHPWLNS", "sequence of UniProt Q9Y2U5 (whole entry, looked up)": "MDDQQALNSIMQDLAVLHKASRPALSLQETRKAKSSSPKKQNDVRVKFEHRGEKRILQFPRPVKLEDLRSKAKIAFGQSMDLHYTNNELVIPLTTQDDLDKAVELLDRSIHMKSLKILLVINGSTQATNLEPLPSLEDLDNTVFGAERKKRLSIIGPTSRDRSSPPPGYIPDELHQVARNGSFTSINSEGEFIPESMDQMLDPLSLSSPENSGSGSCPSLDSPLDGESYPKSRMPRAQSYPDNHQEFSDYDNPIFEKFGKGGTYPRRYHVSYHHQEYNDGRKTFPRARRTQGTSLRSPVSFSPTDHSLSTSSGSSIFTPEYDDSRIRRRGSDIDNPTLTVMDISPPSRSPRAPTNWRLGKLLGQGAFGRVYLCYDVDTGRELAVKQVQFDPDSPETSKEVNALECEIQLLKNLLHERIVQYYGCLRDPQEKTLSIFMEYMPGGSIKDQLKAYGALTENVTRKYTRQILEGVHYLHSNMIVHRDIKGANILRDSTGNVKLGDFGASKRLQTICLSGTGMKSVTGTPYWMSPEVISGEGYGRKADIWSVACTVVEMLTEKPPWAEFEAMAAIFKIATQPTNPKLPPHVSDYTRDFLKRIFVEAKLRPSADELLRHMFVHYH"}
{"data": "Sample 1", "target": "Wee1-like protein kinase (WEE1, Homo sapiens, UniProt P30291)", "read-out": "enzyme activity", "mode": "inhibitor", "tested at": "0.5 µM", "baseline": "control", "sequence of UniProt P30291 (whole entry, looked up)": "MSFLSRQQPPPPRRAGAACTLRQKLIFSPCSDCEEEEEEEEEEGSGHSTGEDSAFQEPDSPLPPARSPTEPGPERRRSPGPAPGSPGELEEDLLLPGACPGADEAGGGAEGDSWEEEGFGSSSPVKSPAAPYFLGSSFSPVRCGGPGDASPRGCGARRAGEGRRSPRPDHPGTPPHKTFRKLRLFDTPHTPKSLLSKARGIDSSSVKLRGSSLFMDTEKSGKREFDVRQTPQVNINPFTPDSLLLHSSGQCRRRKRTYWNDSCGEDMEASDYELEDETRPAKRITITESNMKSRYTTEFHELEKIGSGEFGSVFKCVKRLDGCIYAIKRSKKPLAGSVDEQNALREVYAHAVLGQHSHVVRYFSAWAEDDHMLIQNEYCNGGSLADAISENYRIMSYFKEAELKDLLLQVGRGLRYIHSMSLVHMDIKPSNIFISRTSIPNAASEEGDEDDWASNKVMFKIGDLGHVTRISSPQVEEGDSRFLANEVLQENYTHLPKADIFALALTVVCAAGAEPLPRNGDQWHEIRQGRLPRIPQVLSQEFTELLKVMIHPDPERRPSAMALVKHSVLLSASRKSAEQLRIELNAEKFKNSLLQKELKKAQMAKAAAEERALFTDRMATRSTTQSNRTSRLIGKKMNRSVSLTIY"}
{"Structure (SMILES)": "Cn1c2ccccc2c2c3c(c4c5ccccc5n(CCC#N)c4c21)CNC3=O", "remaining activity [%]": 85.4}
{"Structure (SMILES)": "O=C(Nc1cccc(Nc2cc(Nc3cccc(C(F)(F)F)c3)ncn2)c1)C1CC1", "remaining activity [%]": 94}
{"Structure (SMILES)": "O=C1NC(=O)C(c2cn(CCCO)c3ncccc23)=C1c1cnccn1", "remaining activity [%]": 96.2}
{"Structure (SMILES)": "O=C1NC(=O)C(c2cn(CCCn3ccnc3)c3ccccc23)=C1Nc1ccccc1", "remaining activity [%]": 95.8}
{"Structure (SMILES)": "O=C(O)c1ccc2c3c1cccc3c(=O)n1c3ccccc3nc21", "remaining activity [%]": 84.6}
{"Structure (SMILES)": "N#CC(C#N)=C(N)/C(C#N)=C/c1ccc(O)cc1", "remaining activity [%]": 93.7}
{"Structure (SMILES)": "Oc1ccc(-c2nc(-c3ccncc3)c(-c3ccc(F)cc3)[nH]2)cc1", "remaining activity [%]": 94.9}
{"Structure (SMILES)": "Cn1sc(=O)n(Cc2ccccc2)c1=O", "remaining activity [%]": 92.3}
{"Structure (SMILES)": "CCOC(=O)c1c(C)[nH]c(/C=C2\\C(=O)Nc3ccccc32)c1C", "remaining activity [%]": 91.2}
{"Structure (SMILES)": "Nc1[nH]nc2nc3ccccc3nc12", "remaining activity [%]": 101}
{"Structure (SMILES)": "Nc1ncnc2n[nH]c(Nc3ccc(F)cc3)c12", "remaining activity [%]": 93.9}
{"Structure (SMILES)": "Cc1cccc(-c2[nH]c(C(C)(C)C)nc2-c2ccc3c(c2)OCO3)n1", "remaining activity [%]": 81.5}
{"Structure (SMILES)": "COc1cc2ncnc(Nc3ccc(Oc4ccccc4)cc3)c2cc1OC", "remaining activity [%]": 99.1}
{"Structure (SMILES)": "C#Cc1cccc(Nc2ncnc3cc(OCCOC)c(OCCOC)cc23)c1", "remaining activity [%]": 95.2}
{"data": "Sample 2", "SMILES": "O=C(Nc1cnn(-c2csc(C(=O)NC3COC3)c2)c1)Nc1ccccc1Cl", "read-out": "enzyme activity", "tested at": "5 µM", "baseline": "untreated control"}
{"target": "CLK1 (Homo sapiens, UniProt P49759)", "remaining activity [%]": 80.5}
{"target": "EPHB3 (Homo sapiens, UniProt P54753)", "remaining activity [%]": 84.8}
{"target": "LTK (Homo sapiens, UniProt P29376)", "remaining activity [%]": 94.5}
{"target": "SRPK2 (Homo sapiens, UniProt P78362)", "remaining activity [%]": 95}
{"target": "Aurora kinase B (AURKB, Homo sapiens, UniProt Q96GD4)", "remaining activity [%]": 91.4}
{"target": "EPHA8 (Homo sapiens, UniProt P29322)", "remaining activity [%]": 101}
{"target": "Cyclin-dependent kinase 4, with cyclin D3 (CDK4, Homo sapiens, UniProt P11802)", "remaining activity [%]": 96.1}
{"target": "PBK (Homo sapiens, UniProt Q96KB5)", "remaining activity [%]": 112}
{"data": "Sample 3", "Structure (SMILES)": "CC(=O)Nc1c(C(C)=O)c(=O)n(C)c2nc(-c3ccc(Cl)cc3Cl)c(-c3ccc(Cl)cc3)cc12", "read-out": "cell-free assay", "technique": "competition with immobilised ligand", "tested at": "1 µM"}
{"target": "MAP4K4 (Homo sapiens, UniProt O95819)", "remaining binding [%]": 100}
{"target": "MAP3K2 (Homo sapiens, UniProt Q9Y2U5)", "remaining binding [%]": 100}
{"target": "TBK1 (Homo sapiens, UniProt Q9UHD2)", "remaining binding [%]": 81}
{"target": "CLK3 (Homo sapiens, UniProt P49761)", "remaining binding [%]": 100}
{"target": "PIK3CG (Homo sapiens, UniProt P48736)", "remaining binding [%]": 78}
{"target": "CASK (Homo sapiens, UniProt O14936)", "remaining binding [%]": 83}
{"data": "Sample 4", "organism": "Sarcocystis neurona", "read-out": "parasite activity", "tested at": "10 µM", "time": "96 h"}
{"SMILES": "Cc1cccc(Nc2ccncc2S(=O)(=O)NC(=O)NC(C)C)c1", "activity class": "inactive"}
{"SMILES": "CNC(=C[N+](=O)[O-])NCCSCc1csc(CN(C)C)n1", "activity class": "inactive"}
{"SMILES": "O=c1[nH]cnc2c1ncn2[C@H]1CC[C@@H](CO)O1", "activity class": "inactive"}
{"SMILES": "CC(C)[N+](C)(CCOC(=O)C1c2ccccc2Oc2ccccc21)C(C)C", "activity class": "inactive"}
{"SMILES": "CN(C)c1ccc(O)c2c1C[C@H]1C[C@H]3[C@H](N(C)C)C(O)=C(C(N)=O)C(=O)[C@@]3(O)C(O)=C1C2=O", "activity class": "inactive"}
{"SMILES": "COc1cc(-c2ccc(=O)[nH]n2)ccc1OC(F)F", "activity class": "inactive"}
{"SMILES": "CN1[C@@H]2C[C@@H](OC(=O)[C@H](CO)c3ccccc3)C[C@H]1[C@@H]1O[C@@H]12", "activity class": "inactive"}
{"SMILES": "O=C(O)c1cc(/N=N/c2ccc(S(=O)(=O)Nc3ccccn3)cc2)ccc1O", "activity class": "inactive"}
{"SMILES": "CC1(C)O[C@@H]2C[C@H]3[C@@H]4C[C@H](F)C5=CC(=O)C=C[C@]5(C)[C@@]4(F)[C@@H](O)C[C@]3(C)[C@]2(C(=O)CO)O1", "activity class": "inactive"}
{"note": "A few entries again (sample 2):"}
{"target": "Aurora kinase B (AURKB, Homo sapiens, UniProt Q96GD4)", "remaining activity [%]": 91.4}
{"target": "PBK (Homo sapiens, UniProt Q96KB5)", "remaining activity [%]": 112}
{"target": "CLK1 (Homo sapiens, UniProt P49759)", "remaining activity [%]": 80.5}
